# Measurements from different studies.
# Each line is one published result; not all experiments were run side by side. ± gives the spread as reported.
# STK26: Serine/threonine-protein kinase 26 (STK26, Homo sapiens, UniProt Q9P289)
# Sequence of UniProt Q9P289 (whole entry, looked up): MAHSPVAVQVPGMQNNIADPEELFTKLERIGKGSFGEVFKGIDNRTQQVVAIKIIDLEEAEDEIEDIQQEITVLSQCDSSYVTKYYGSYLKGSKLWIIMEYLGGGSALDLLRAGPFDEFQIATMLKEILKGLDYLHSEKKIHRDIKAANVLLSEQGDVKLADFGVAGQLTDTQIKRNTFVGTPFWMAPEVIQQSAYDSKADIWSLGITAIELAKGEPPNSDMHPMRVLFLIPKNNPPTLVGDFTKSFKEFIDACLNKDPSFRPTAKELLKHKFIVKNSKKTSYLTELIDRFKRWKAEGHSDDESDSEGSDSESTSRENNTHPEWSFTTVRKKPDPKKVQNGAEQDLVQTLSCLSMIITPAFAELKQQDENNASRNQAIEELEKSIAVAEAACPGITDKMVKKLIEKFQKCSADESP
# Sequence of UniProt Q9UPE1 (whole entry, looked up): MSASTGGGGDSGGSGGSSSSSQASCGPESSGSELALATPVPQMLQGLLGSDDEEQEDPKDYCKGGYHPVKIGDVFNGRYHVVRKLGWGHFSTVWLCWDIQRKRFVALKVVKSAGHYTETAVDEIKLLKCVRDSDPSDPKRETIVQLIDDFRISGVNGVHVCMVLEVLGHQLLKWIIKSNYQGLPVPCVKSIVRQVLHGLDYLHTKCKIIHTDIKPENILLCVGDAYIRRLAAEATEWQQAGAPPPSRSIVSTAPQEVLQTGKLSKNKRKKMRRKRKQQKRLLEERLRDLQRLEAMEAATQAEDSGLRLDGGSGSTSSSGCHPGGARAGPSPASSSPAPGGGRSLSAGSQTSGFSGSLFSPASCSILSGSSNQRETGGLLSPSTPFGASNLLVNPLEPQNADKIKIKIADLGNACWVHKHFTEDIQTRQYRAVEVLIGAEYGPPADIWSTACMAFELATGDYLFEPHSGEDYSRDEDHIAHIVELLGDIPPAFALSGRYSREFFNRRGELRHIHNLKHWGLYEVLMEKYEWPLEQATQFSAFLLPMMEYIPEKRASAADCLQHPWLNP
# Sequence of UniProt P52564 (whole entry, looked up): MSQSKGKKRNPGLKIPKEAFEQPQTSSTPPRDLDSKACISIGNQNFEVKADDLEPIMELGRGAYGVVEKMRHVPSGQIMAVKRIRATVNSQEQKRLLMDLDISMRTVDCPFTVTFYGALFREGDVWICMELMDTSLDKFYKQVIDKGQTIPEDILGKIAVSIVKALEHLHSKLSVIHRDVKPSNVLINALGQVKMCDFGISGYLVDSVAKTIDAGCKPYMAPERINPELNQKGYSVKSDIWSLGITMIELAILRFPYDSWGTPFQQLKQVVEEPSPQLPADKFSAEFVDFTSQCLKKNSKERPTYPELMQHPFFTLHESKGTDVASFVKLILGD
# Sequence of UniProt Q9UQB9 (whole entry, looked up): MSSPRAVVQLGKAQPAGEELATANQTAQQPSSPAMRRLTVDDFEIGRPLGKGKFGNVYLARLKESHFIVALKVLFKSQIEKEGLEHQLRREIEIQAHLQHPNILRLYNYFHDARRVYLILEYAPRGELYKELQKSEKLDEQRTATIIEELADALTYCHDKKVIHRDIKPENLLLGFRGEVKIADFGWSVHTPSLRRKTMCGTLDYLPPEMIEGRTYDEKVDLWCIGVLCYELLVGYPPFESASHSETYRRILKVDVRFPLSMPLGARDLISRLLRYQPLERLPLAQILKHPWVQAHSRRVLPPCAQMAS
# Sequence of UniProt Q14012 (whole entry, looked up): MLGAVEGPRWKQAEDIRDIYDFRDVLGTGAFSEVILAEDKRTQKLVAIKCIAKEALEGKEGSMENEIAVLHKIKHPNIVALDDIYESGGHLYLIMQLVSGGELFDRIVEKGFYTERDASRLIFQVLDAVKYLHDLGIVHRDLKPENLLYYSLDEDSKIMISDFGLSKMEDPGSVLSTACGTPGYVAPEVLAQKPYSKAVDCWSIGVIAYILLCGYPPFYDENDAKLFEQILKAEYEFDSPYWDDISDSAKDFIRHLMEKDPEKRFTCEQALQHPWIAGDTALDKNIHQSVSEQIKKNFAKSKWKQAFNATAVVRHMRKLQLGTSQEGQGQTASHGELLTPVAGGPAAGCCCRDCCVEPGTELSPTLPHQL
Compound,tested on,test,system,setting,how to read,measurement,value
N#CCC(=O)Nc1ccc(C2CCCCC2)cc1,,liver microsome stability,human liver microsomes,"1 µM, without NADPH",,hepatic clearance,0.492 L/h/kg
Cc1cc(Nc2cc(N3CCN(C)CC3)nc(Sc3ccc(NC(=O)C4CC4)cc3)n2)[nH]n1,"Aurora kinase C (AURKC, Homo sapiens, UniProt Q9UQB9)",kinase activity,,0.03 µM,relative to: control,remaining activity,15%
O=C(O)c1ccc(Nc2ncc3c(n2)-c2ccc(Cl)cc2C(c2c(F)cccc2F)=NC3)cc1,MRCKα(h),kinase activity,,1 µM,,remaining activity,101%
C=CC(=O)N1CCC[C@@H](n2nc(-c3ccc(Oc4ccccc4)cc3)c3c(N)ncnc32)C1,"CAMK1 (Homo sapiens, UniProt Q14012)",,,1 µM,,remaining activity,26.5%
COc1cc(F)ccc1-c1ncnc(Nc2cccc(C[S@](C)(=N)=O)c2)n1,"SRPK3 (Homo sapiens, UniProt Q9UPE1)",kinase activity,,"10 µM, added: 10 µM ATP",,remaining activity,111%
COc1ccc(F)cc1C(=O)NCc1ccc(-c2nn([C@@H](C)C(F)(F)F)c(N)c2C(N)=O)cc1,"MAP2K6 (Homo sapiens, UniProt P52564)","kinase activity, inhibitor, HotSpot radiometric",,"100 nM, added: ATP 10 µM",,remaining activity,91.1 ± 1.3%
COc1cc(Nc2ncc3c(n2)-c2ccc(Cl)cc2C(c2c(F)cccc2OC)=NC3)ccc1C(=O)O,PDGFRA D842V,kinase activity,,1 µM,,remaining activity,87%
O=C1NC(=O)/C(=C/c2ccc(-c3ccc(F)cc3O)o2)S1,STK26,enzyme activity,,10 µM,,remaining activity,45%
O=C(NCCc1cccnc1)c1ccc(C2CCCCC2)cc1,,liver microsome stability,human liver microsomes,"1 µM, without NADPH",,hepatic clearance,0.234 L/h/kg
COc1cc(-c2cncc3c2CN(C)Cc2cc(N4CCNCC4)ccc2-3)cc(OC)c1OC,STK26,kinase activity,,"1 µM, human enzyme, added: ATP 10 µM",relative to: DMSO control,remaining activity,115%

# Repeated from above:
Compound,tested on,test,system,setting,how to read,measurement,value
Cc1cc(Nc2cc(N3CCN(C)CC3)nc(Sc3ccc(NC(=O)C4CC4)cc3)n2)[nH]n1,"Aurora kinase C (AURKC, Homo sapiens, UniProt Q9UQB9)",kinase activity,,0.03 µM,relative to: control,remaining activity,15%
